Measurements of several laboratories.
Every numbered part comes from another study and shows a few of its results, in no order.

Block 1
Target: Histone acetyltransferase KAT6A, both winged helices, GST fusion (KAT6A, Homo sapiens, UniProt Q92794, residues 1-181)
Technique: protein binding microarray
Form: double-stranded DNA, one strand shown
Medium: in vitro
Tested at: not given
Notes: 8-mer, flanks averaged, mean of 2 arrays, mostly near background
Relative to: not given
Reading: higher = stronger binding
Target sequence (chain): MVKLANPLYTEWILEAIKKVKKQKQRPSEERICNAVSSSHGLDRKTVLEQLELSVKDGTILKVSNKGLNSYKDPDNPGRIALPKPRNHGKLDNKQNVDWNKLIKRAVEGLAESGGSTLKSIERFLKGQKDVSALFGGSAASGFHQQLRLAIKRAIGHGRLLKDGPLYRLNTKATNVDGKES
The E-score of `CACAGCAC` is reported as 0.0114.
`CCACACCA` gave an E-score of -0.134.
`GGTCTAAC` gave an E-score of -0.0321.
`CGGTGATA` has an E-score of 0.108.
With `GGCTGTAA` the E-score was -0.0666.
The E-score of `TCAAGTAA` is reported as -0.0985.
With `ACGAATCA` the E-score was -0.0147.
The E-score of `ATTTCTTC` is reported as -0.0821.
For `AGCCCGCT`, the E-score was 0.189.
With `CTGCGTAC` the E-score was 0.0902.
`GACACCAC` gave an E-score of -0.00225.
With `CCGGTTCC` the E-score was 0.166.
`ATAAAATG` gave an E-score of -0.0184.
`GCTAGGCC` has an E-score of 0.0219.
The E-score of `AGAGAAGG` is reported as -0.143.
With `CTTTGGCC` the E-score was -0.0659.
`GGTTTACA` gave an E-score of 0.0338.
For `GAATTCGA`, the E-score was -0.0613.
For `AGGCTCAA`, the E-score was -0.154.
The E-score of `CGGCGATC` is reported as 0.354.
`AAAACCTT` has an E-score of -0.12.

Block 2
Target: Fragile X messenger ribonucleoprotein 1, C-terminal low-complexity region (Fmr1, Mus musculus, UniProt P35922)
Technique: RNA Bind-n-Seq
Form: RNA
Medium: in vitro
Tested at: 200 nM
Notes: whole 134-nt RNA, ends assumed
Together with: 150 mM LiCl
Relative to: input library
Reading: higher = stronger binding
Library: 7-deaza-guanosine replaces G
For `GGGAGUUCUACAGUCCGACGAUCCCUGUGCUACACAUCGUAUGUACCGAAUCGGGAAAAAAAGGAAAAAAAGGGAAAAAAAGGGAAAGUAUUAUGUUACGCCGUUCGGAUCUGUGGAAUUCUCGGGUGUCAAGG`, the log2 enrichment was -0.154.
With `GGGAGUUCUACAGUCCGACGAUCCCUCAAGUCCUGUGCUACACAUCGUAUGUACCGAAUCGGGGAGGGGAGGAGGAAAGUAUUAUGUUACGCCGUUCGGAUCUGCACUUCCAGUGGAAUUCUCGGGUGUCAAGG` the log2 enrichment was -0.704.
For `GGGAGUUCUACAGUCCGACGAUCACCAUGCAGGUGGGCAUCUUUGGGAAGUGGGGCAAGGGGGGGAUAGGGAGGGGGGUAACACUUUCGGAACAGGUGGUCCCAGGUCGUUUCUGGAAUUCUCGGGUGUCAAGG`, the log2 enrichment was 1.33.
For `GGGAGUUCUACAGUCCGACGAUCCAAGUCCUGUGCUACACAUCGUAUGUACCGAAUCGGGGCCCGGGGCCCGGCCCGGGAAAGUAUUAUGUUACGCCGUUCGGAUCUGCACUUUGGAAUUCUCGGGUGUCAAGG`, the log2 enrichment was -1.65.
`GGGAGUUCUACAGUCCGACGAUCUGGGAGGUGGAUUUUGUUUAUCUUUUUAGCUCAUUUCCAGGGGUGGGAAUUUUUUUUUAAUAUGUGUCAUGAAUAAAGUUGUUUUUGAAAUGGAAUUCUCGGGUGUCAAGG` has a log2 enrichment of -0.0658.
The log2 enrichment of `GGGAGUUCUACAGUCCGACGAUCAGUCCUGUGCUACACAUCGUAUGUACCGAAUCGGGCCCCCGGCCCCCGGGCCCCCGGGAAAGUAUUAUGUUACGCCGUUCGGAUCUGCACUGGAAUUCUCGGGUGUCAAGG` is reported as -2.19.
For `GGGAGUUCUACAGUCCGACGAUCCACAGACAACACGCACCCACACAGACACAGAGGGAAGGGGUUGGGAUGGGAAAAGGGUGCACAGCAGGGCGGGGUAGGACCCCAGCCCCUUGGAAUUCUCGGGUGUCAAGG`, the log2 enrichment was 0.362.
For `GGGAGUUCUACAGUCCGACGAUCCACAGACAACAUGCACCCACACAGACACAGAGGGAAGGGGUUGGGAUGGGGACAGGGUGCACAGCAGGGCGGGGUAGGACCCCAGCCCCUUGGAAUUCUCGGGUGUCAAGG`, the log2 enrichment was -0.771.
The log2 enrichment of `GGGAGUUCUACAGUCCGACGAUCUGGCCCUGGUGGCAUGCGGGGAGGAAGAGGUGGCCUCAUGGAUCGUGGUGGUCCCGGUGGAAUGUUCAGAGGUGGCCGUGGUGGAGACGGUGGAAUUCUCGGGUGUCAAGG` is reported as -0.36.
With `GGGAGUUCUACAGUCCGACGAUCCCUCAAGUCCUGUGCUACACAUCGUAUGUACCGAAUCGGAAGGGAAGGGAAGGAAAGUAUUAUGUUACGCCGUUCGGAUCUGCACUUCCAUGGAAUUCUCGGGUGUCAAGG` the log2 enrichment was -1.57.
`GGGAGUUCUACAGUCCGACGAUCGUCCUGUGCUACACAUCGUAUGUACCGAAUCGGGUGGGAAAAAAAGGGUUUUUUUGGGAAAGUAUUAUGUUACGCCGUUCGGAUCUGCACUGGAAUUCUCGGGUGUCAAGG` has a log2 enrichment of -1.27.

Block 3
Target: Interferon regulatory factor 5, full length, phosphomimetic (IRF5, Homo sapiens, UniProt Q13568-2, residues 1-514, K96S/S451D/S453D/S456D/S462D)
Technique: protein-binding microarray
Form: double-stranded DNA, one strand shown
Medium: in vitro
Tested at: 250 nM
Notes: 60-bp whole probe
Together with: salmon DNA 0.4 mg/ml
Relative to: random background probes
Reading: higher = stronger binding
All sequences stand within: GCCTAGCAC … GTCTTGATTCGCTTGACGCTGCTG
`TTAGATTTCAGTCTCGATTGGTGCTAG` has a log fluorescence of 2.74 z-score.
`TTAGATTTCAGACTGGCTTAGTGCTAG` has a log fluorescence of 0.303 z-score.
The log fluorescence of `GACGATTTCGGGTATCGAGGCGTGCTA` is reported as 4.56 z-score.
With `TTACGACTGGGTTTCGGTTAGTGCTAG` the log fluorescence was 8.53 z-score.
`TCAGCTTTACTGATGGCACTGTGCTAG` gave a log fluorescence of -0.191 z-score.
`TCATGTACATCTCTCTTACTGTGCTAG` gave a log fluorescence of 0.524 z-score.
The log fluorescence of `TTAGGTTCCGGTGTCGGTTAGTGCTAG` is reported as 1.2 z-score.
The log fluorescence of `TCAGGTCTCTAACTCAAACTGTGCTAG` is reported as -0.142 z-score.
With `GGGGTTTCGGATGGGATGTCGTGCTAG` the log fluorescence was 4.12 z-score.
`TCAAAATGATTGGTTGAACTGTGCTAG` gave a log fluorescence of 0.186 z-score.
With `TTAGGCATCGGACTGGGTTAGTGCTAG` the log fluorescence was -0.467 z-score.
For `TTAGATTTCAGTATCGATTCGTGCTAG`, the log fluorescence was 7.72 z-score.
With `GACGGTTTCGGGACTAGGGACGTGCTA` the log fluorescence was 4.94 z-score.
With `TTTTTTTTTTTTTTTTTTACGTGCTAG` the log fluorescence was 1.17 z-score.
With `GACGGACTGCTTATCCCGACGTGCTAG` the log fluorescence was -0.498 z-score.
`TTAGATTTCAGTTCCCATTAGTGCTAG` gave a log fluorescence of 2.25 z-score.
With `TTAGAACTGGGGACTAGATTAGTGCTA` the log fluorescence was -0.216 z-score.
For `TTTACTTTCTTTTTTTCTTTGTGCTAG`, the log fluorescence was 5.57 z-score.
`GGCGGTTTCGGGACTGGGGACGTGCTA` has a log fluorescence of 4.87 z-score.
`TCACCACTCATGCCTCTTACTGTGCTA` gave a log fluorescence of 0.468 z-score.
`GACGGCCTGGGGTTTCGGGACGTGCTA` gave a log fluorescence of 0.819 z-score.
For `GACGGACAGGGACTGGGGACGTGCTAG`, the log fluorescence was -0.488 z-score.
For `GACGGTTTCCTTATCTTGACGTGCTAG`, the log fluorescence was 0.873 z-score.
`GACCGACTGCTTTTCCTGACGTGCTAG` gave a log fluorescence of -0.294 z-score.
For `TCAACTAGGGCATTTAGAACTGTGCTA`, the log fluorescence was -0.421 z-score.

Block 4
Target: Sal-like protein 4, full length isoform A (SALL4, Homo sapiens, UniProt Q9UJQ4, residues 1-1053)
Chain of UniProt Q9UJQ4 (whole entry, looked up): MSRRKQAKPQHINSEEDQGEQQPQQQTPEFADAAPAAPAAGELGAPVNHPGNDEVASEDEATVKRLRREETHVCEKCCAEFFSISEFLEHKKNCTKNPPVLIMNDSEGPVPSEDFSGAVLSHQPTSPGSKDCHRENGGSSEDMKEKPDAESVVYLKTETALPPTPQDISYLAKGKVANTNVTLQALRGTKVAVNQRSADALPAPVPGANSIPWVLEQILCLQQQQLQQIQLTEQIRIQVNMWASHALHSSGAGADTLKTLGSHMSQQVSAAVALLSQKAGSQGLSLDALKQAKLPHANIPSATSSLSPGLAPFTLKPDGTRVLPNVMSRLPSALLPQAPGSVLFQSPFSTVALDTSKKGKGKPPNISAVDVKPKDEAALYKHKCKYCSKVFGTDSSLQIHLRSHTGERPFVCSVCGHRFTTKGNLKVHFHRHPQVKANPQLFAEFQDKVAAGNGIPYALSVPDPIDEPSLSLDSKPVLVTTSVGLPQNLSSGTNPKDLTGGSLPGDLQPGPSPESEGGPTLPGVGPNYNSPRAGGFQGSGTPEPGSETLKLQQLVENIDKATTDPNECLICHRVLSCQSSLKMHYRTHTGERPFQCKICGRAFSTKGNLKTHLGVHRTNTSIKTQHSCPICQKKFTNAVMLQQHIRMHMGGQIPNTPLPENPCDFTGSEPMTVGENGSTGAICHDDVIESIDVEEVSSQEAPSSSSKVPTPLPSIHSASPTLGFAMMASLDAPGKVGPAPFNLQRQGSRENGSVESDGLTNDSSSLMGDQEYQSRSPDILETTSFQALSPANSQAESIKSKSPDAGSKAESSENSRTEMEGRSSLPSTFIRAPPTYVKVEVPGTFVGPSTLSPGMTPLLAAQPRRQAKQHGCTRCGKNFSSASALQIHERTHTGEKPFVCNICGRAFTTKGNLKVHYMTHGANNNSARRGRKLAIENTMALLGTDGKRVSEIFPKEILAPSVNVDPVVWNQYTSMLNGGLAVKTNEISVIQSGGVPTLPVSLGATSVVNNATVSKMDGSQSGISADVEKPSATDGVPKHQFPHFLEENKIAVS
Technique: universal PBM
Form: double-stranded DNA, one strand shown
Medium: in vitro
Tested at: 600 nM
Notes: 8-mer, flanks averaged, mean of replicates
Reading: higher = stronger binding
`GCCTCGCA` gave an E-score of -0.213.
`GTAAGCTA` gave an E-score of 0.102.
With `CCTGTTCG` the E-score was -0.181.
For `CAACATTC`, the E-score was -0.0981.
The E-score of `ACGCTAAA` is reported as 0.0889.
`GCGCCTTA` has an E-score of -0.18.
The E-score of `ATTTTAGC` is reported as 0.144.
The E-score of `GGTCCGAA` is reported as -0.106.
`AGTGCCCG` gave an E-score of -0.212.
With `CTTCCCTA` the E-score was 0.0258.
For `CTCGCAAA`, the E-score was -0.0468.
The E-score of `GAACATTA` is reported as 0.201.
For `CCGGAACC`, the E-score was -0.403.
The E-score of `AGGCAGAA` is reported as 0.0201.
For `AGTAAAAA`, the E-score was 0.335.
The E-score of `ACCGCGCT` is reported as -0.247.
With `AGGGAGAG` the E-score was -0.00702.
With `CATCGCCA` the E-score was -0.0209.
`CTGGGCGC` has an E-score of -0.29.
For `CTTCCATA`, the E-score was 0.271.
`AAGCTGGA` gave an E-score of -0.0531.
With `GCGTGGCA` the E-score was -0.295.

Block 5
Target: Prothrombin, mature alpha-thrombin (F2, Homo sapiens, UniProt P00734)
Technique: aptamer microarray, sandwich
Form: DNA with 2'F-ANA
Medium: in vitro
Tested at: 200 nM
Notes: whole 15-mer aptamer, many near background
Together with: Cy3 exosite-II aptamer, 400 nM
Reading: higher = stronger binding
Sequence: GGTTGGTGTGGTTGG
`2'F-ANA at 3 6 7 8 10 12`: “mean fluorescence intensity” 616 a.u.
For `2'F-ANA at 1 4 5 6 7 8 11 14`, “mean fluorescence intensity” read 58.8 a.u.
`2'F-ANA at 2 6 7 8 9 11 14 15`: “mean fluorescence intensity” 116 a.u.
`2'F-ANA at 3 10 12 13` — result for “mean fluorescence intensity”: 616 a.u.
`2'F-ANA at 1 4 5 7 8 10 12 14`: “mean fluorescence intensity” 46.1 a.u.
Under “mean fluorescence intensity”, `2'F-ANA at 1 3 5 7 9 10 14 15` is recorded as 45.1 a.u.
For `2'F-ANA at 4 6 8 9 10 11 14 15`, “mean fluorescence intensity” read 56.1 a.u.
For `2'F-ANA at 2 3 4 5 6 7 10 14 15`, “mean fluorescence intensity” read 48.3 a.u.
Under “mean fluorescence intensity”, `2'F-ANA at 1 7 8 10 11 12 13 14` is recorded as 72.3 a.u.
For `2'F-ANA at 2 7 8 9 10 11 12 13 14 15`, “mean fluorescence intensity” read 88.3 a.u.
For `2'F-ANA at 1 2 4 5 7 9 10 11 12 15`, “mean fluorescence intensity” read 50.5 a.u.
Under “mean fluorescence intensity”, `2'F-ANA at 2 3 4 7 11 13 14` is recorded as 339 a.u.
For `2'F-ANA at 2 3 4 8 10 12 14 15`, “mean fluorescence intensity” read 192 a.u.
For `2'F-ANA at 1 2 3 7 9 10 12 13 14 15`, “mean fluorescence intensity” read 70.6 a.u.
Under “mean fluorescence intensity”, `2'F-ANA at 1 3 6 7 10 11 13 14 15` is recorded as 59.6 a.u.
`2'F-ANA at 2 3 4 8 10 11 15` — result for “mean fluorescence intensity”: 230 a.u.
`2'F-ANA at 3 5 6 10 12 13 15` — result for “mean fluorescence intensity”: 57.8 a.u.
`2'F-ANA at 5 7 8 9 10 11 15`: “mean fluorescence intensity” 48.8 a.u.
For `2'F-ANA at 6 9 11 14`, “mean fluorescence intensity” read 156 a.u.
For `2'F-ANA at 1 3 10 11 12 14`, “mean fluorescence intensity” read 60.8 a.u.
`2'F-ANA at 1 2 3 6 7 8 9 11 14 15`: “mean fluorescence intensity” 71.2 a.u.
Under “mean fluorescence intensity”, `2'F-ANA at 4 8 9 13 14` is recorded as 102 a.u.
Under “mean fluorescence intensity”, `2'F-ANA at 1 3 8 9 10 11 12 13 14 15` is recorded as 69.9 a.u.
Under “mean fluorescence intensity”, `2'F-ANA at 2 3 4 5 7 8 9 11 13 15` is recorded as 64.9 a.u.

A few entries again (block 3):
The log fluorescence of `GACGATTTCGGGTATCGAGGCGTGCTA` is reported as 4.56 z-score.
With `TTACGACTGGGTTTCGGTTAGTGCTAG` the log fluorescence was 8.53 z-score.
`TCAGCTTTACTGATGGCACTGTGCTAG` gave a log fluorescence of -0.191 z-score.
`TCATGTACATCTCTCTTACTGTGCTAG` gave a log fluorescence of 0.524 z-score.
The log fluorescence of `TTAGGTTCCGGTGTCGGTTAGTGCTAG` is reported as 1.2 z-score.
The log fluorescence of `TCAGGTCTCTAACTCAAACTGTGCTAG` is reported as -0.142 z-score.
With `GGGGTTTCGGATGGGATGTCGTGCTAG` the log fluorescence was 4.12 z-score.
`TCAAAATGATTGGTTGAACTGTGCTAG` gave a log fluorescence of 0.186 z-score.
